Results pooled from the literature.
Numbered parts are unrelated; each lists some results of a single study.

Sample 1 — observed: enzyme activity; mode: inhibitor; concentration: 10 µM; quantity: inhibition
Target: Calcium/calmodulin-dependent protein kinase type II subunit alpha (CAMK2A, Homo sapiens, UniProt Q9UQM7)
OCC1=C[C@@H](O)[C@]2(O[C@@H]3O[C@H](CO)[C@@H](O)[C@H](O)[C@H]3O[C@@H]3O[C@H](CO)[C@@H](O)[C@H](O)[C@H]3O)C=CO[C@@H](O[C@@H]3O[C@H](CO)[C@@H](O)[C@H](O)[C@H]3O)[C@H]12: 18%
COc1cc2c(c(OC)c1OC)-c1c(cc(OC)c(OC)c1OC)C[C@](C)(O)[C@@H](C)C2: -27%
C=CCN1CCCC1CNC(=O)c1cc2nn[nH]c2cc1OC (centres unmarked): -10%
CC1(C)Oc2cc3oc(-c4cc(O)cc(O[C@@H]5OC[C@@H](O)[C@H](O)[C@H]5O)c4)cc3cc2CC1O (some centres unmarked): -29%
O=C(O)[C@@H]1Cc2nc[nH]c2CN1: 8%
NS(=O)(=O)c1cc2c(cc1C(F)(F)F)NC(Cc1ccccc1)NS2(=O)=O (centres unmarked): -6%

Sample 2 — organism: Sarcocystis neurona; observed: parasite growth; concentration: 10 µM; time: 96 h; setting: second screen; relative to: untreated; quantity: log2 fold change
CN1CCN(C2=Nc3cc(F)ccc3Cc3ccccc32)CC1: 0.29
O=C(CCCN1CC=C(n2c(=O)[nH]c3ccccc32)CC1)c1ccc(F)cc1: 0.0285
CN(C)CCOC(C)(c1ccccc1)c1ccccn1 (centres unmarked): 0.31
COc1cc([C@@H]2c3cc4c(cc3[C@H](O)[C@H]3COC(=O)[C@H]23)OCO4)cc(OC)c1OC: -0.0165
CC1(C)O[C@@H]2C[C@H]3[C@@H]4C[C@H](F)C5=CC(=O)C=C[C@]5(C)[C@H]4[C@@H](O)C[C@]3(C)[C@]2(C(=O)CO)O1: 0.4
CN(C)[C@@H]1C(O)=C(C(N)=O)C(=O)[C@@]2(O)C(O)=C3C(=O)c4c(O)cccc4[C@@](C)(O)[C@H]3C[C@@H]12: 0.39
O=C(CCNNC(=O)c1ccncc1)NCc1ccccc1: 0.19
O=S(=O)(O)CCS: 0.13

Sample 3 — Compound: CC(C)CN(C)c1nc(N)c(C(=O)N=C(N)N)nc1Cl; observed: β-arrestin recruitment; mode: agonist; technique: PRESTO-Tango; concentration: 10 µM; relative to: untreated; quantity: fold over basal
Metabotropic glutamate receptor 1 (GRM1, Homo sapiens, UniProt Q13255): 0.98 fold
N-formyl peptide receptor 2 (FPR2, Homo sapiens, UniProt P25090): 0.71 fold
Relaxin receptor 2 (RXFP2, Homo sapiens, UniProt Q8WXD0): 0.47
5-hydroxytryptamine receptor 1B (HTR1B, Homo sapiens, UniProt P28222): 1.17

Sample 4 — observed: cell-free assay; technique: competition with immobilised ligand; concentration: 1 µM; quantity: remaining binding
Compound: COc1ccc2c(c1)O[C@@H](c1ccc(OC)c(OC)c1)C[C@H]2NC(=O)C1(c2ccc3c(c2)OC(F)(F)O3)CC1
Epidermal growth factor receptor (EGFR, Homo sapiens, UniProt P00533, G719S): 91%
Serine/threonine-protein kinase tousled-like 1 (TLK1, Homo sapiens, UniProt Q9UKI8): 84%
Serine/threonine-protein kinase 33 (STK33, Homo sapiens, UniProt Q9BYT3): 68%
Mitogen-activated protein kinase kinase kinase 10 (MAP3K10, Homo sapiens, UniProt Q02779): 100%
Interleukin-1 receptor-associated kinase 4 (IRAK4, Homo sapiens, UniProt Q9NWZ3): 82%
Tyrosine-protein kinase Srms (SRMS, Homo sapiens, UniProt Q9H3Y6): 94%
Serine/threonine-protein kinase 17A (STK17A, Homo sapiens, UniProt Q9UEE5): 100%
Tyrosine-protein kinase Fgr (FGR, Homo sapiens, UniProt P09769): 94%
Wee1-like protein kinase 2 (WEE2, Homo sapiens, UniProt P0C1S8): 100%
Phosphatidylinositol 4,5-bisphosphate 3-kinase catalytic subunit alpha isoform (PIK3CA, Homo sapiens, UniProt P42336, E545A): 94%
Vascular endothelial growth factor receptor 2 (KDR, Homo sapiens, UniProt P35968): 80%

Excerpt of the above (sample 2):
COc1cc([C@@H]2c3cc4c(cc3[C@H](O)[C@H]3COC(=O)[C@H]23)OCO4)cc(OC)c1OC: -0.0165
CC1(C)O[C@@H]2C[C@H]3[C@@H]4C[C@H](F)C5=CC(=O)C=C[C@]5(C)[C@H]4[C@@H](O)C[C@]3(C)[C@]2(C(=O)CO)O1: 0.4
CN(C)[C@@H]1C(O)=C(C(N)=O)C(=O)[C@@]2(O)C(O)=C3C(=O)c4c(O)cccc4[C@@](C)(O)[C@H]3C[C@@H]12: 0.39
O=C(CCNNC(=O)c1ccncc1)NCc1ccccc1: 0.19
